Experimental data collected from several papers.
Every numbered part comes from another study and shows a few of its results, in no order.

Block 1
Target: Sal-like protein 4, full length isoform A (SALL4, Homo sapiens, UniProt Q9UJQ4, residues 1-1053)
UniProt Q9UJQ4, sequence (whole entry, looked up): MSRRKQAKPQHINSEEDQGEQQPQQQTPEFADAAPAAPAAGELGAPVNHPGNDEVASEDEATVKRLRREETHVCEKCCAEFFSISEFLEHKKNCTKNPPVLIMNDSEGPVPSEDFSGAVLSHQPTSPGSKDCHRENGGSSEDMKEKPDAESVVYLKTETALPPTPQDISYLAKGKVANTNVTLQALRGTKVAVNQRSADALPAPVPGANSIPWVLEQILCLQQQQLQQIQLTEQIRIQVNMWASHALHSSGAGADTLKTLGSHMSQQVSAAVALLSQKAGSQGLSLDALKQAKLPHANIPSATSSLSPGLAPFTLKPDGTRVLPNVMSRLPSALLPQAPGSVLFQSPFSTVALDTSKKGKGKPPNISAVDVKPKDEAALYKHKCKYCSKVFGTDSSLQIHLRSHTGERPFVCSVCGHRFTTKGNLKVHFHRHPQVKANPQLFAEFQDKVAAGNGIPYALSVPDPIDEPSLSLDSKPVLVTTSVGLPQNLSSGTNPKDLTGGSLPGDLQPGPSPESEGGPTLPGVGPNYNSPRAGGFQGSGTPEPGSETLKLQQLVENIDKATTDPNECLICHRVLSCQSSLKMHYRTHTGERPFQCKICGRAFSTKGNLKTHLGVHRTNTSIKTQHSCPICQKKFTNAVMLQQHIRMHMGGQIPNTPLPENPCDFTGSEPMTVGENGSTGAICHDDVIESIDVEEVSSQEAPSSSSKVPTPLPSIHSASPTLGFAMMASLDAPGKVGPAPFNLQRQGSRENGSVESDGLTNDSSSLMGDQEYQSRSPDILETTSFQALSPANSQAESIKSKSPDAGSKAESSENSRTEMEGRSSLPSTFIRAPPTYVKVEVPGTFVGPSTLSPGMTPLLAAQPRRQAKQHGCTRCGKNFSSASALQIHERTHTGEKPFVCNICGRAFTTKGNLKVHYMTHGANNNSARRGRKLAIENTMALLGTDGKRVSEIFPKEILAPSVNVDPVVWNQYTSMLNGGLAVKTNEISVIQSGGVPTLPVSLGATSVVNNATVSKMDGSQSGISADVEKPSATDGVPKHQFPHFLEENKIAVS
Method: universal PBM
Form: double-stranded DNA, one strand shown
Matrix: in vitro
Concentration: 600 nM
Setting: 8-mer, flanks averaged, mean of replicates
Direction: higher = stronger binding
Endpoint: E-score
CCACACGC: -0.276
AGGCGTGA: -0.168
ACGCCGGA: -0.337
ACGAGTCC: -0.135
TATCTCAA: 0.341
ACTTCGCA: -0.0277
ACGCGCAG: -0.323
AGATCGCA: -0.0985
ACACCGCC: -0.205
CTACCCTA: -0.0749
ATCTCTAG: 0.0677
ACTAGTGC: -0.179
CAGGGAAA: -0.126
AGGCAGCC: -0.275
GATCTCCA: -0.231
AGGCGGTA: -0.224
GGCTACGA: -0.138
GGTTAATA: 0.282
CCCGCGTA: -0.234
CATGTTGC: -0.0305
AAATAGCT: 0.148
CGTACTGA: 0.0393

Block 2
Target: Histone acetyltransferase KAT6A, winged helix 1, GST fusion (KAT6A, Homo sapiens, UniProt Q92794, residues 1-85)
Method: protein binding microarray
Form: double-stranded DNA, one strand shown
Matrix: in vitro
Concentration: not given
Setting: 8-mer, flanks averaged, mean of 2 arrays, mostly near background
Baseline: not given
Direction: higher = stronger binding
Endpoint: E-score
Target sequence (chain): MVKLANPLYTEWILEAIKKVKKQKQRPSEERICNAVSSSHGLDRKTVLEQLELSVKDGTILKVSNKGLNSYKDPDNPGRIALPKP
AACATGTA: -0.106
AAAATAGT: -0.13
GACTGGAC: -0.0573
AATATGAC: -0.128
CGCCACGA: 0.147
CTAGTCCC: -0.0638
CAGGCCGA: 0.0707
CGTCATCA: -0.0919
CTGGGATC: -0.148
AGTGCAGC: -0.0344
TGATCGCA: 0.0798
AGTCTCCG: 0.127
ACGTCTAT: -0.196
AGGAAATG: -0.124
CAGAAAGG: -0.132
AAAGCTAG: -0.252
ACTCCGTG: 0.156
CCGACACA: 0.00286
CAACAGAG: -0.00313
AGACTCCG: 0.0931
GGGTTCGA: -0.0834
CCAGAAGC: -0.167
CGACATGC: 0.00728
GCACTGAC: 0.0036
ACGAGAAG: -0.132

Block 3
Target: RING finger protein unkempt homolog, zinc fingers 1-6, GST-SBP tag (UNK, Homo sapiens, UniProt Q9C0B0, residues 30-357)
Method: RNA Bind-n-Seq
Form: RNA
Matrix: in vitro
Concentration: not given
Setting: RNA with constant flanks, human and mouse sites, ends assumed
Baseline: input RNA pool
Direction: higher = stronger binding
Endpoint: bound/input enrichment
Constant ends, left off below: GGGAGUUCUACAGUCCGACGAUC … CAACAGAGGAUUGAGCAUCA
Construct (chain): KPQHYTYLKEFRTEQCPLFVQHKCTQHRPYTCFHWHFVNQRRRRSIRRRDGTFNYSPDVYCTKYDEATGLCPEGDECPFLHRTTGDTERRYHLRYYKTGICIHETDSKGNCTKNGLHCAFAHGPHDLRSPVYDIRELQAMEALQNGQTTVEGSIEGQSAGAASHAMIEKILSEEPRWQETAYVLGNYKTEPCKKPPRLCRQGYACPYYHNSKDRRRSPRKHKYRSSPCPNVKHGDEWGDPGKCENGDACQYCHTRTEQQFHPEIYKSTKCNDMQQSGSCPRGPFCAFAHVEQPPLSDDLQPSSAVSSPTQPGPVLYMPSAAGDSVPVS
CUGUGUCUGCAGGAGCCUGGGGUGUUCCCACAGGAGGUGGCUGACCGGCUUCUUCAGACUAUAGCAUUCCACGGUCUCCUGAAUGAUGGAACUGUGGGAAUUUUCAGAGGUAACCAGAUG: 0.36 ratio
AUUCAGUUGGAAGAUGGUUCUGCGGCCUAUGUUCAACAUGUACCCAUACCUAAAAGUAAUAGUUAUGACCAGAGUGCAUUACAGGCGGUUCAGCUGGAAGAUGGUACCACAGCUUAUAUC: 0.135 ratio
CUGCCCUUUCAGGACUGCGUCGUACAGACCCCGCAGGGGCAGGACUAUGCGGGCAAGUGCUAUGCGGGGAAGCAGAUCACCGGUGUGUCCAUUCUGCGCGCCGGUGAAACCAUGGAGCCC: 0.0758 ratio
GAAUCUGUACUUGUAGAGUGGCGCGAUGCAACAGAGAAGAAUAAGGAGUUUCUCCCGCGUUUAGGAGCUACUAUUGAACAUAUCUCAGUCUCGCCUGCAGGAGAUUUAUUCUGCACUUCU: 2.98 ratio
CCGAUCUUCACUUCUAGCAGGUUUUUUAAACGUGACCCUUGGCUGUAUUUCCCAUCUUCACAGUUCAAGCACCCCAAACCUGCCCUUUCUCCCCUGCAGACUGGCAGGUGGGAUUGGCUC: 0.138 ratio
AAAUUCUACAAACAAGUUAUUGAUAAAGGCCAAACAAUUCCAGAGGAUAUCUUAGGAAAGAUAGCAGUUUCUAUUGUAAAAGCGUUAGAACAUUUACACAGUAAGCUGUCUGUUAUCCAU: 0.306 ratio
UCUAGUGGCUUCGGUGGCAAAUACGGUGUGCAAGCUGACCGUGUAGACAAGAGUGCCGUGGGCUUUGACUACCAGGGCAAGACGGAGAAGCAUGAGUCUCAGAAAGAUUACUCCAAAGGU: 0.197 ratio
AGGUCGCGGGCGCCACAGGUGGAAGAAGAAAGGUGCCACUUUGGCAUGAAGAUAGACUCACUUAGACGUCAAUCUUUUAAGCUGAGUGCAUUGUGAUUUCCAAUAAUUGAGGCAGUGGUU: 0.249 ratio
UCUGGCUCAUAUGAUAAGUCAGUGGCUUUGUAUGACUGCCGAAGUCCAGAUGAAAGCCAUCGAAUGUGGCGAUUCAGUGGGCAGAUAGAGAGAGUGACUUGGAAUCACUUUUCACCUUGU: 0.0603 ratio
GGAGUCCUGCCCCUUGGAGCUCAUGGUGCGCUGCGGUUGCGCUUUGUUGAGAAAGUAUGGAAAUUUCAUUGAUAACCUGAGAAUCUUCACCAAGGGAGGAAGCGGUGGAAUGGGUUACCC: 0.196 ratio
GCCGAGGCCUCACUUAUUCUAAUCUGUAGGGUUUUUUUUUUUUUUUAAAGACUUUUGAAUGUUUAAUAAUUUUGUAGAUCAUGCUCUUUACACAGAGUACCGCUUAUUUAAUAAGACGGG: 28.1 ratio

Block 4
Target: PABPC1L2, full length, GST fusion (mouse, UniProt A0ABA7IW68)
Method: RNAcompete
Form: RNA
Matrix: in vitro
Concentration: 20 nM
Setting: 7-mer, probes averaged, single round
Baseline: mean of 7-mers
Direction: higher = stronger binding
Endpoint: 7-mer Z-score
Residues (chain): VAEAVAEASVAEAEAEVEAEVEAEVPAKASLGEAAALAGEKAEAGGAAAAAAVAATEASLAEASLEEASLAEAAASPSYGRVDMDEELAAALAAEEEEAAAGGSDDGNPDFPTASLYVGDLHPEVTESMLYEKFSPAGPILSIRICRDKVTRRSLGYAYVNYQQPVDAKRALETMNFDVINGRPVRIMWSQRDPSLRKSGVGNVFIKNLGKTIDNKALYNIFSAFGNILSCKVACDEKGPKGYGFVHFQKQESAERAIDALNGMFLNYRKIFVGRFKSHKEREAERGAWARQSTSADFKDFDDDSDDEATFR
GCGGGUA: 0.184
UCAUCAC: -0.347
UACCCUU: -0.358
GGGGCAG: 0.631
AUCGGAA: 0.149
AAUUCAC: 0.0732
GCAGAAG: 0.12
UACCGAG: -0.202
AUUUGUG: -0.349
GGCGUGU: -0.0754
AACGCGA: -0.00108
AUUGGAC: 0.0152
ACCAUUC: -0.289
UAGUGAU: -0.353
GCUGAUU: -0.0826
UAAUAAC: -0.0283
GGACAGC: 0.0696
GGGGGCC: 0.258
GUUCAAC: -0.24
UCACUGU: -0.367
UAGCCUG: -0.22

Block 5
Target: RNA binding protein fox-1 homolog 2, RRM domain, GST-SBP tag (RBFOX2, Homo sapiens, UniProt O43251-10, residues 100-194)
Method: RNA Bind-n-Seq
Form: RNA
Matrix: in vitro
Concentration: 365 nM
Setting: natural RNA segment, single round, ends assumed
Baseline: no-protein control
Direction: higher = stronger binding
Endpoint: RBNS enrichment (R)
Constant ends, left off below: GGGAGUUCUACAGUCCGACGAUC … UGGAAUUCUCGGGUGCCAA
UUGAGAAAAAAAUGUAUCAGACUUUUAUGAUUUGAAUGAAAUGUAUUAUAGAAAAAAAUAAACACUUAAAAUAAUGUUAGUCUCAUUACUAGUGGGUCAGGAUAUUUUUA: 3.51
UCCUACUGGCAGCUCCAGGCACCCCCCUCUCACCACGCCGUUUGCUGGCUCUGACACUGUUGGGUGAGGGUCCUGGUCCUGCUGUCUUCCCUUCUGGCCUCUGCACAGGG: 0.442
AUUUUUAUGUGAAGAUCCUUCUCGUAUUUCAUUUGGAAGGAUGAGCGAGGUCUGCUUCUUUCUUUUUACUUCCCCUGUGUUUCUGAAAGGCGGUUUGGCCAGGCUUACUG: 0.514
AUAUAUAUAAAUAUUAAAUAUAUACAUUUCUCUAUGUGGGCGGGUAUUUUAGAAGGGUUCUCUUCAGCAACUGUAAUACUAACCAGUGUUGCCAACCCCUCCCCACCCCC: 0.724
GCUUUGAUCCUGUUUCAGUCAAAGUCAGCUUCAGCCACCCCCUCCAUUCCCUAGCCAGCUCCACCCUUGAUGAAACUGUGGCUAAUGUUCCUUCACUAGGACAGGCACCA: 0.416
UUGGCAUUUCUAAGUUCCUAGGUGAUGUUCUACUCACAGUCAGUCCAGAGGAUUACCUUAAGAGUCUCUGCAUUAAACUAGAAAAGUUGCACCUAGAAGGGACAGAGGGU: 0.69
GUGUGAAGCUACCCUCAGGCUAUGUAGAUCAGAUGUAUAAAAAGCACAAAUGAAUAUCUCAAUUACAUUUGGGUUCCAUUCUCAAGAUAUUUUAUUAUGUAUAUUCAAUU: 0.459
AAAAAUGAUAUAGACGACAGCACUGGCUCUGUGAAGGUGGCAUCUUUCUGGGCAGGCAGGCCAUGGGGCAUGGAGGAGGGUGCAAAGAUAUGGGUUGCUGUCUUCUGGCC: 1.41
UUUGAAGGAUUUUUCUUUCUGAACUUUUUAAAUUUUUAUAUUUUCCUGCCAUACAUCUACAAAGUGGGUUUUGAGUGAGGGCAGGUGGCCCAGUGGCUUUGGGUGGCGAC: 1.37
UAAAUGCCCUGCUCUGAACACGAAGCUUAGUAUAAACUGAUGGAUAUCCCUACCUUGAAAGAAGAAAAGGUUCUUACUGCUUGGUCCUUGAUUUAUCACACAAAGCAGAA: 0.575
UGGCAGCAUAGGUUCUAAUUUUCUUUUGAAGAGAAAUUGUGGGAAGGGUAAACUUUUGAGAUUUUUUUUUUUAAAACAAUUUUAUGUUUGUGCACUUUGUGUUAAUCUCA: 0.886
GGACGACAUGACGACGUGCCUUUUCAUUUUACAUCCUCUGUCCCCUAGGGUAAGUUUUUCAGCAUUAAAUAAAACAUUUCAAAUAUACUGUAAAUGGCUUUAGUUGUAAA: 0.393

For quick reference, copied from above (block 3):
CUGUGUCUGCAGGAGCCUGGGGUGUUCCCACAGGAGGUGGCUGACCGGCUUCUUCAGACUAUAGCAUUCCACGGUCUCCUGAAUGAUGGAACUGUGGGAAUUUUCAGAGGUAACCAGAUG: 0.36 ratio
AUUCAGUUGGAAGAUGGUUCUGCGGCCUAUGUUCAACAUGUACCCAUACCUAAAAGUAAUAGUUAUGACCAGAGUGCAUUACAGGCGGUUCAGCUGGAAGAUGGUACCACAGCUUAUAUC: 0.135 ratio
CUGCCCUUUCAGGACUGCGUCGUACAGACCCCGCAGGGGCAGGACUAUGCGGGCAAGUGCUAUGCGGGGAAGCAGAUCACCGGUGUGUCCAUUCUGCGCGCCGGUGAAACCAUGGAGCCC: 0.0758 ratio
GAAUCUGUACUUGUAGAGUGGCGCGAUGCAACAGAGAAGAAUAAGGAGUUUCUCCCGCGUUUAGGAGCUACUAUUGAACAUAUCUCAGUCUCGCCUGCAGGAGAUUUAUUCUGCACUUCU: 2.98 ratio
CCGAUCUUCACUUCUAGCAGGUUUUUUAAACGUGACCCUUGGCUGUAUUUCCCAUCUUCACAGUUCAAGCACCCCAAACCUGCCCUUUCUCCCCUGCAGACUGGCAGGUGGGAUUGGCUC: 0.138 ratio
